# Experimental data collected from several papers.
# A part holds a random share of what one study measured. Substitutions count along the parent as printed.

# Block 1
# Target: MAFG, bZIP domain (human)
# Technique: DHFR protein complementation
# Matrix: yeast
# Setting: single substitutions, most at no-binding floor
# Reference: wild-type JUN-FOS pair
# Reading: higher = stronger binding
# Starting sequence: JUN, bZIP domain (human); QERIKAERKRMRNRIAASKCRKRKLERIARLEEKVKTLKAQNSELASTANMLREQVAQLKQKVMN; partner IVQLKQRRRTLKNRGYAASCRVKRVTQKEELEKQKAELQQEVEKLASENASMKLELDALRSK
Change,binding fitness
S47T,-1.31 natural log
I28A,-1.47 natural log
Q55W,-1.55 natural log
E33A,-1.49 natural log
E33M,-1.35 natural log
S43C,-1.31 natural log
E32W,-1.29 natural log
L31M,-1.44 natural log
Q55H,-1.52 natural log
K36G,-1.48 natural log
R53T,-1.57 natural log
A29Q,-1.53 natural log
L59H,-1.41 natural log
Q41H,-1.44 natural log
A46T,-1.42 natural log
A29W,-1.47 natural log
Q55A,-1.24 natural log
A29M,-1.46 natural log
Q41L,-1.5 natural log
M51W,-1.45 natural log

# Block 2
# Target: Fragile X messenger ribonucleoprotein 1, C-terminal low-complexity region (Fmr1, Mus musculus, UniProt P35922)
# Technique: RNA Bind-n-Seq
# Form: RNA
# Matrix: in vitro
# Tested at: 200 nM
# Setting: whole 134-nt RNA, ends assumed
# Together with: 150 mM LiCl
# Reference: input library
# Reading: higher = stronger binding
# Library: 7-deaza-guanosine replaces G
# All sequences stand within: GGGAGUUCUACAGUCCGACGAUC … UGGAAUUCUCGGGUGUCAAGG
Strand,log2 enrichment
CUGUGCUACACAUCGUAUGUACCGAAUCGGGGUUUUUUUGGGUUUUUUUGGGGUUUUUUUGGAAAGUAUUAUGUUACGCCGUUCGGAUCU,1.29
CACAGACAACACGCACCCACACAGACACAGAGGGAAGGGGUUGGGACGGGGACAGGGUGCACAGCAGGGCGGGGUAGGACCCCAGCCCCU,0.679
UUAAGAAUUUGCUUAAAGAAGUGCGGAUCUAUGCACAGAAAUUUAUUGAUCGAGGAAAGGAUUUUAACUUGGAGUUGGCAAUUAAAACAC,-0.481
AAGUCCUGUGCUACACAUCGUAUGUACCGAAUCGGGGCCCGGGGCCCGGGGCCCGGAAAGUAUUAUGUUACGCCGUUCGGAUCUGCACUU,-2.26
GUCCUGUGCUACACAUCGUAUGUACCGAAUCGGGGAAAAAGGGAAAAAGGAAAAAGGGGAAAGUAUUAUGUUACGCCGUUCGGAUCUGCA,0.535
UCCUCAAGUCCUGUGCUACACAUCGUAUGUACCGAAUCGGUGGAGGAAAGGAAAGUAUUAUGUUACGCCGUUCGGAUCUGCACUUCCAGC,-0.241
UCCUGUGCUACACAUCGUAUGUACCGAAUCGGGGAAAAAGGGGUUUUUUUGGGGUGGGGAAAGUAUUAUGUUACGCCGUUCGGAUCUGCA,-0.643
AGUCCUGUGCUACACAUCGUAUGUACCGAAUCGGGGAGGGGUUUGGGGUUUUUGGGGAAAGUAUUAUGUUACGCCGUUCGGAUCUGCACU,-0.753

# Block 3
# Target: Histone acetyltransferase KAT6A, winged helix 2, GST fusion (KAT6A, Homo sapiens, UniProt Q92794, residues 85-181)
# Technique: protein binding microarray
# Form: double-stranded DNA, one strand shown
# Matrix: in vitro
# Tested at: not given
# Setting: 8-mer, flanks averaged, mean of 2 arrays, mostly near background
# Reference: not given
# Reading: higher = stronger binding
# Residues (chain): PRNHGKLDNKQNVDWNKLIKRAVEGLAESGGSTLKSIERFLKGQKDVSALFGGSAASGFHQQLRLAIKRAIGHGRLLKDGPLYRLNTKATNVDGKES
Strand,E-score
ATCATGTC,-0.0686
CCTTGAAA,-0.0833
ATTGAGCA,-0.00973
ACTTACGG,-0.118
CCTTCGTC,0.0996
ATATTTCA,0.111
CAGCACCA,-0.0921
AAAACGTT,-0.234
CCCTCCTA,-0.083
AAGTACGC,-0.115
GTACCTCA,-0.0481
GGCCAGCA,0.118
GGTTGTTA,-0.0396
CCAAAATA,0.141
CAGTCCAC,-0.145
CATCGACA,-0.0849

# Block 4
# Target: RNA binding protein fox-1 homolog 2, RRM domain, GST-SBP tag (RBFOX2, Homo sapiens, UniProt O43251-10, residues 100-194)
# Technique: RNA Bind-n-Seq
# Form: RNA
# Matrix: in vitro
# Tested at: 365 nM
# Setting: natural RNA segment, single round, ends assumed
# Reference: no-protein control
# Reading: higher = stronger binding
# All sequences stand within: GGGAGUUCUACAGUCCGACGAUC … UGGAAUUCUCGGGUGCCAA
# Residues (chain): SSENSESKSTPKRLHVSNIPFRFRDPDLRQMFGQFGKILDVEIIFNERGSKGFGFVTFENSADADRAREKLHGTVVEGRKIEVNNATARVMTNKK
Strand,RBNS enrichment (R)
UAGCACCCAAAUUAAGUUGCUUAAGAGAGGAAAUGUACAUCUUGUAUAACUUAGGGAGCGAAGAAAAUGUAGGCGCGAAAGUGAAAAGUGAGGCAGCUAGUUCUUCCUAU,0.494
CAUUAGUCAUUUUAGUCGAUUCCAACAGGUGAGACUUGCUUUCUACAAAGCAUCCCUUAGAAGUCCAUGCUGGGCAGACAUUGAACACAGUGCCUUAUUAUGUUUCUCCC,0.455
ACUCGAGAGGUGGGAGGAACUCCUUGCACACACCCUGAGCUUUUGCCACUUCUAUCAUUUUUGAGCAACUCCCUCUCAGCUAAAAGGCCACCCCUUUAUCGCAUUGCUGU,0.829
GGUGAGUGGAGACUCAGCCCAGCUGCUCUUGAGCUUGGAUAGUUAUACAUUUUGGUGACUUCUGACUCUCCUUCCACCUCCCCACUGUACACUGUGGUACAGAUAGUUGG,0.357
CAGGAGUAGCAGGAGAUGGGCAAAGAAAACUGGGGUGCACUCAGCUCUCACAGGGGUAAUCAUCUCAAGUGGUAUUUGUAGCCAAGUGGGAGCUAUUUUCUUUUUUGUGC,0.773
UCCCUUUUAAUCCAGAAAACAGCCUUUGAUUAGGUAUUGUUGUCUCCAUUUUAUAGAUGAGGAAACUGAGGCAGUAUGACUGAGGCCGAGAGCAGUGGUUAAGACAGACU,0.465
AGAUACCAGUAGAAGAAUUGGAUGUUAUACUAUACUUAGCACCUUAAUUCUACUUAACAUUUACUUCUUAAGCUGACAACUAGAUUCAGAAAUACAAGAAAAAUAGACUA,0.346
GUAAAUGCUAAAAAUGUUAAAGAACUCGAAGUAUUUCUCUAAAAGGCUGUCAAGAGAAUCUAGGUCUGCUAUGACUUAUUCCAAGUCCUCAGAGUUAAGUCAAGGAGUGU,0.442

# Repeated from above (block 1):
Change,binding fitness
I28A,-1.47 natural log
Q55W,-1.55 natural log
E33A,-1.49 natural log
E33M,-1.35 natural log
S43C,-1.31 natural log
E32W,-1.29 natural log
